# Published values gathered from unrelated publications.
# ± marks the error that the study gave.
# APP: Amyloid-beta precursor protein (APP, Homo sapiens, UniProt P05067)
# Genome polyprotein NS2B-NS3 protease: Genome polyprotein, NS2B-NS3 protease (dengue virus type 2, UniProt P29990)
Compound,tested on,test,test system,setting,scale,endpoint,value
COc1cc2c(Oc3ccc4[nH]c(C)cc4c3F)ccnc2cc1OCC1(N)CC1,,,paediatric refractory sarcoma patients,10 mg,,Myalgia incidence,25%
O=C(Nc1cccnn1)N1CCC(=Cc2cccc(Oc3ccc(C(F)(F)F)cn3)c2)CC1,"Vasopressin V2 receptor (AVPR2, Homo sapiens, UniProt P30518)",binding,,"50 µM, with: [3H][Arg8]vasopressin",,inhibition,13%
c1ccc(C(NCCNC(c2ccccc2)c2ccccc2)c2ccccc2)cc1,"Cyclin-dependent kinase 3, with cyclin E (CDK3, Homo sapiens, UniProt Q00526)",enzyme activity,,"10 µM, Eurofins selectivity panel",,inhibition,-1%
O=c1[nH]c2c3c(sc2c(=O)n1O)CCC3,"Tripartite terminase subunit 3, C-terminal nuclease domain (Human betaherpesvirus 5, UniProt P16732)","endonuclease activity, ELISA",,"20 µM, with: dsDNA",,inhibition,82%
COc1ccc(N2C(=O)N(c3c(C)cccc3Cl)Cc3cnc(Nc4ccc(C5CCN(C)CC5)cc4OC)nc32)nc1,"Dual specificity tyrosine-phosphorylation-regulated kinase 3 (DYRK3, Homo sapiens, UniProt O43781)",kinase activity,,0.5 µM,,inhibition,7%
O=C(c1ccc(Cl)cc1)N1CCN2C(=O)N(OC(=O)N3CCOc4ccccc43)C(=O)C2C1 (centres unmarked),"Actin, cytoplasmic 1 (ACTB, Homo sapiens, UniProt P60709)",MS-based ABPP,SW-620 conditioned medium,10 µM,"baseline: compound over DMSO, lower = more inhibition",mean protein ratio,1.05
CN1CCN(c2nc(N)c3ccccc3n2)CC1,"GABA-A receptor; GABA-A site (alpha1/beta2 interface), with gamma-2 subunit (Homo sapiens, UniProt P14867+P47870)","binding, radioligand binding",,0.1 µM,,inhibition,8.5%
CC[C@H](C)[C@H](NC(=O)[C@H](Cc1ccccc1)NC(=O)[C@H](CCC(=O)O)NC(=O)[C@H](CCCNC(=N)N)NC(=O)[C@H](C)NC(=O)[C@H](C)NC(=O)[C@H](CCC(N)=O)NC(=O)[C@H](CCC(=O)O)NC(=O)[C@H](CCC(=O)O)NC(=O)[C@H](CC(C)C)NC(=O)[C@H](Cc1ccc(O)cc1)NC(=O)[C@H](CO)NC(=O)[C@H](CO)NC(=O)[C@@H](NC(=O)[C@H](CC(=O)O)NC(=O)[C@H](CO)NC(=O)[C@@H](NC(=O)[C@H](Cc1ccccc1)NC(=O)[C@@H](NC(=O)CNC(=O)[C@H](CCC(=O)O)NC(=O)[C@H](C)NC(=O)CCc1c[nH]cn1)[C@@H](C)O)[C@@H](C)O)C(C)C)C(=O)N[C@@H](C)C(=O)N[C@@H](Cc1c[nH]c2ccccc12)C(=O)N[C@@H](CC(C)C)C(=O)N[C@H](C(=O)N[C@@H](CCCNC(=N)N)C(=O)NCC(=O)N[C@@H](CCCNC(=N)N)C(=O)N[C@@H](CCCCNC(=O)COCCOCCNC(=O)COCCOCCNC(=O)CC[C@H](NC(=O)CCCCCCCCCCCCCCCCC(=O)O)C(=O)O)C(=O)NCC(=O)NCC(=O)N[C@@H](CO)C(=O)N[C@@H](CCCCNc1c(NCCCCCN(O)C(=O)CCC(=O)NCCCCCN(O)C(=O)CCC(=O)NCCCCCN(O)C(C)=O)c(=O)c1=O)C(=O)O)C(C)C [zirconium-89 labelled],,gamma counting,"rat, stomach-duodenum","intravenous, 3 nmol/kg, 4 h",,tissue uptake,0.49 %ID/g
Nc1c2c(nc3c1C(c1cccc([N+](=O)[O-])c1)c1ccc(OS(=O)(=O)c4ccc(F)cc4)cc1O3)CCCC2 (centres unmarked),APP,"Aβ42 self-aggregation, inhibitor, thioflavin T fluorescence",,1 µM,,inhibition,21%
CN1CCN(c2cc(-c3ccncc3)c(-c3ccc4ccccc4c3)nn2)CC1,"D(1B) dopamine receptor (DRD5, Homo sapiens, UniProt P21918)","antagonist, FLIPR",,10 µM,,inhibition,25.3%
C=C(C)[C@H]1CN[C@H](C(=O)O)[C@H]1CC(=O)O,kainate glutamate receptor (rat),radioligand binding,rat brain,1×10 µM,,inhibition,100%
O=C(Nc1ccc2c(c1)B(O)OC2)c1cccc(OCc2ccccc2)n1,Genome polyprotein NS2B-NS3 protease,"enzyme activity, FRET",dengue virus serotype 2,"50 µM, with: substrate 50 µM",,inhibition,24 ± 7%
CC(C)N1CCC[C@H]1CNC(=O)c1cn(C2CCCC2)c(=O)c2c1c1ccccc1n2C,"dopamine D4.2 receptor, human",radioligand binding,,10 µM,,inhibition,-2%
COc1cc(Nc2ncc(F)c(Nc3ccc4c(n3)NC(=O)C(C)(C)O4)n2)cc(OC)c1OC,"Mitogen-activated protein kinase kinase kinase 6 (MAP3K6, Homo sapiens, UniProt O95382)","binding, KINOMEscan",,"10 µM, ASK2 kinase",,inhibition,32%
Cc1ccc(S(=O)(=O)Oc2ccc3c(c2)Oc2nc4c(c(N)c2C3c2ccc(Cl)c(Cl)c2)CCCC4)cc1 (centres unmarked),APP,"Aβ42 self-aggregation, inhibitor, thioflavin T fluorescence",,0.01 µM,,inhibition,2.7%
CC1CCCN(CCCNC(=O)c2cc(Sc3ccc(F)cc3)nc3ccccc23)C1 (centres unmarked),Vero-E6,CellTiter-Glo ATP,,"72 h, first round 5-point","baseline: DMSO 0%, hyamine -100%, more negative, more toxic",maximum response,4.36%
O=C(O[C@@H]1Cc2c(O)cc(O)cc2O[C@@H]1c1cc(=O)c(O)c2c(O)c(O)cc([C@H]3Oc4cc(O)cc(O)c4C[C@H]3O)c2c1)c1cc(O)c(O)c(O)c1,"Protein disulfide-isomerase A6 (PDIA6, Homo sapiens, UniProt Q15084)",di-eosin-GSSG reductase activity,,"20 µM, 15 min",,inhibition,inhibited
CC(=O)c1c(C)c2cnc(Nc3ccc(C4CCN(CCS(C)(=O)=O)CC4)cn3)nc2n(C2CCCC2)c1=O,,,"human, plasma","oral, 25 mg, day 1 single dose",,MRT,7.67 h
O=C(Nc1ccc2c(c1)B(O)OC2)c1cccc(OCc2ccccc2)c1,Genome polyprotein NS2B-NS3 protease,"enzyme activity, FRET",dengue virus serotype 2,"50 µM, with: substrate 50 µM",,inhibition,30 ± 5%
CC(=O)N[C@@H]1C(NC(=N)N)C[C@](OCC2O[C@@H](Oc3ccc([N+](=O)[O-])cc3)C(O)C(O)[C@H]2O)(C(=O)O)OC1[C@H](O)[C@H](O)CO (some centres unmarked),"Sialidase A (nanA, Streptococcus pneumoniae, UniProt P62575)",,,"8 µM, pH 6",,inhibition,6.4 ± 0.3%
O=C(Nc1ccc2c(c1)B(O)OC2)c1cccc(NCc2ccccc2)c1,Genome polyprotein NS2B-NS3 protease,"enzyme activity, FRET",dengue virus serotype 2,"50 µM, with: substrate 50 µM",,inhibition,29 ± 4%
O=C(Nc1cnccc1Cl)N1CCN(Cc2ccc3c(c2)OC(F)(F)O3)CC1,"Prostacyclin receptor (PTGIR, Homo sapiens, UniProt P43119)","radioligand binding, inhibitor",,"10 µM, human, with: [3H]iloprost",,inhibition,2%
O=C(O)C[C@H](NC(=O)[C@H](CC(=O)O)NC(=O)[C@H](CC(=O)O)NC(=O)[C@H](CC(=O)O)NC(=O)[C@H](CC(=O)O)NC(=O)[C@H](CC(=O)O)NC(=O)[C@H](CC(=O)O)NC(=O)[C@H](CC(=O)O)NC(=O)[C@H](CC(=O)O)NC(=O)[C@H](CC(=O)O)NC(=O)[C@H](CC(=O)O)NC(=O)[C@H](CCCCNC(=O)c1ccc(C(=O)NCCOCCOB2BBBBBB3BBBB3B2)cc1)NC(=O)CN1CCN(CC(=O)O)CCN(CC(=O)O)CCN(CC(=O)O)CC1)C(=O)O [gallium-67 labelled],,,"ddY male mice, pancreas","intravenous, 37 kBq, 1 h",,tissue uptake,0.3 %ID/g
Cc1oc(-c2cccc(Cl)c2)nc1CN1CCCC(C(=O)NCCc2ccc(Cl)cc2)C1 (centres unmarked),Vero-E6,CellTiter-Glo ATP,,"72 h, retest 8-point duplicates","baseline: DMSO 0%, hyamine -100%, more negative, more toxic",maximum response,-45.6%
CN(C(=O)n1cnc(-c2ccc[n+]([O-])c2)c1)C1CCCCC1,"Adenosine receptor A1 (ADORA1, Homo sapiens, UniProt P30542)",radioligand binding,,"10 µM, with: [3H]DPCPX",,inhibition,8%
C[C@H]1CN(c2n[nH]c3nc(N[C@H]4CC[C@H](NS(=O)(=O)CCC(F)(F)F)CC4)ncc23)CCO1,"Protein kinase C delta type (PRKCD, Homo sapiens, UniProt Q05655)","inhibitor, Kinobeads competition profiling",,0.16 µM,baseline: vehicle,relative abundance,0.97

# Excerpt of the above:
Compound,tested on,test,test system,setting,scale,endpoint,value
O=C(Nc1ccc2c(c1)B(O)OC2)c1cccc(NCc2ccccc2)c1,Genome polyprotein NS2B-NS3 protease,"enzyme activity, FRET",dengue virus serotype 2,"50 µM, with: substrate 50 µM",,inhibition,29 ± 4%
O=C(Nc1cnccc1Cl)N1CCN(Cc2ccc3c(c2)OC(F)(F)O3)CC1,"Prostacyclin receptor (PTGIR, Homo sapiens, UniProt P43119)","radioligand binding, inhibitor",,"10 µM, human, with: [3H]iloprost",,inhibition,2%
